Experimental data of several laboratories.
Parts stem from different laboratories: compare values within a part only.

Series 1 — technique: protein binding microarray; molecule type: double-stranded DNA, one strand shown; medium: in vitro; concentration: not given; relative to: not given; reading: higher = stronger binding; endpoint: E-score
Target: Histone acetyltransferase KAT6A, winged helix 1, GST fusion (KAT6A, Homo sapiens, UniProt Q92794, residues 1-85)
Notes: 8-mer, flanks averaged, mean of 2 arrays, mostly near background
Construct (chain): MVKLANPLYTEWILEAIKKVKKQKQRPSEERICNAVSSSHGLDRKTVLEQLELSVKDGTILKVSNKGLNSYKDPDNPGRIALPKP
ATACCCGC: 0.335
GCAGATCA: -0.0576
CTGATCTA: -0.12
GCGGTCAA: 0.328
ACGAGCGA: -0.172
CATCCTGC: -0.0602
ACAGTGAC: -0.00758
GCATAAAA: -0.16
GCGTTACC: 0.267
ACCGAATG: -0.0471
ATATGGGG: -0.0699
CCGGACCA: 0.092
CAGAATCC: -0.0399
GGGCACTA: 0.144
ACATAGCG: 0.0827
AATTGGTC: -0.121
ATGTAGCA: -0.19
CAGCAGGG: -0.0137
ATACCTAA: -0.216
GAATTGGC: -0.14
CACAGTAA: 0.00632
CATCATAA: -0.0856
AATCGCTG: 0.109
GATGCCAC: -0.191
ACACATCA: -0.174

Series 2 — technique: RNA Bind-n-Seq; molecule type: RNA; medium: in vitro; concentration: not given; notes: RNA with constant flanks, ends assumed; relative to: input RNA pool; reading: higher = stronger binding; endpoint: bound/input enrichment
Target: RING finger protein unkempt homolog, zinc fingers 1-6, GST-SBP tag (UNK, Homo sapiens, UniProt Q9C0B0, residues 30-357)
All sequences stand within: GGGAGUUCUACAGUCCGACGAUC … CAACAGAGGAUUGAGCAUCA
Target sequence (chain): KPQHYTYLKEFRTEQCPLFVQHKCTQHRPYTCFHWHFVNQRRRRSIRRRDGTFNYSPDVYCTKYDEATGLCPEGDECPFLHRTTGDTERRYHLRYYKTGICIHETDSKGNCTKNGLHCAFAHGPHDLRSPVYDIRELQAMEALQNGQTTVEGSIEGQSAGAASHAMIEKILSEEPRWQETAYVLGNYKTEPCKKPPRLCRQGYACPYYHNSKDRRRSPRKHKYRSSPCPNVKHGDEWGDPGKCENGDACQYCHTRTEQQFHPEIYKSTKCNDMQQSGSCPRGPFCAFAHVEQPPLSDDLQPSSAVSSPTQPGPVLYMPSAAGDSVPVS
GAAGGGGUCUUGGUGUUUAAAGCAUAAGUUACCUGUUUGCACUGUUUUCAAAUAGGAAACAACCGUGGGCACGGUGAACAUCUAAUGUAAACGUGUGUUUUCUUUUGUCAUGCUCUUGAG: 0.18 ratio
AUUGAGAACAGCUCUCCAAAUAGGAAUAGUAGUAAAAAAAAUAAGCAAAAUGAUAUUUGUACCGAAAAAACAGAAGUUAAAUCAUGUAAAGUAAAUGCUGCCAACCUUCCAGGUCCUAAA: 71.2 ratio
AUGGAGAGAAAAGAUUUACUGAAAGCAAAUGUGAAAAUCUUCAAAUCCCAGGGUGCAGCCUCCGAUAAAUACGCCAAGAAGUCAGUUAAGGUUAUUGUUGUGGGUAAUCCAGCCAAUACC: 0.0807 ratio
AGCCUGCACAGCCGCGGCGGCAGCAGCAGUGAGAGUUCCAGGGUCUCCCUCCACUGCUGCCGUAACCCGGGUCCGGGGCCUCGGUGGUGCUCCGAUGCCCCUCACCCACCCCUGAAGAUC: 0.2 ratio
AGCCCGCGGGCGCCUCAGGUAGAAGAAGAAAGGUGCCACUCCGGCAUGAAGACAGACUCGCUCCGUCGCCAGUCACUUAAGCUGAGUGCAUUGUGAUUUCCAAUAAUUGAGGCAGUGGUU: 0.152 ratio
GAGUCAUCUGACUGGAUGAAGACUGUUCCAAGUUACAACCAAACAAAUAGCUCCAUGGACUUCCGAAAUUAUAUGAUGAGAGAUGAGACUCUGGAACCACUGCCCAAAAACUGGGAAAUG: 0.347 ratio
UCCUCACUGGAAAACAUGCUUUUGUUUAACAGUCCUUCUGUUGGCCCUGAUGCUCCCAAGACCGAGGACUUGAAGUGGCAUUCUGCAUUCUUCAGAAAACAAAUGGGUACUUCCUUGGUU: 0.161 ratio
UAUGUGGAGACAGAAUUGAUAUUUGCACUGGCUAAAACAAACCGCCUUGCAGAAUCCGAAGAGUUCAUCAAUGGGCCAAAUAAUGCUCAUAUUCAGCAAGUUGGUGACCGUUGUUAUGAU: 0.0937 ratio
AGUUACCGGCUACCCAAGGACUUUGUAGACCUCUCUACUGGGGAGGACGCUCACAAGCUAACCGACUUCCUUAAGCUGAAGAGAAAUCAGCAGGAGGACGACUGAUGAGCGUACUGGAAC: 0.0603 ratio
GCUGCAUACAUAGAAAAUGCAAAACAGGUUGGCCGCCUUGAAAAUGCAAUCGGGUGGUAUCACCGCCACCCUGGCUAUGGCUGCUGGCUUUCUGGGAUUGAUGUUAGUACUCAGAUGCUC: 0.212 ratio
AAAGGGAAAUCUGUCCGUGUUCAUGUACAGUUCUUUGAUGACAGCCCAACAAGGGGCUGGGUCCGCAAAAGGAUGUUAAAGCCAUAUACAGGUUCAAAGUCAAAGGAAGCCCAAAAGGGA: 0.16 ratio

Series 3 — technique: EMSA with sequencing; molecule type: double-stranded DNA, one strand shown; medium: in vitro; concentration: 10 and 20 nM; relative to: negative control set to 0; reading: higher = stronger binding; endpoint: normalised bound fraction
Target: Hepatocyte nuclear factor 3-alpha (Foxa1, Mus musculus, UniProt P35582, residues 1-468, full length assumed)
UniProt P35582, sequence (whole entry, looked up): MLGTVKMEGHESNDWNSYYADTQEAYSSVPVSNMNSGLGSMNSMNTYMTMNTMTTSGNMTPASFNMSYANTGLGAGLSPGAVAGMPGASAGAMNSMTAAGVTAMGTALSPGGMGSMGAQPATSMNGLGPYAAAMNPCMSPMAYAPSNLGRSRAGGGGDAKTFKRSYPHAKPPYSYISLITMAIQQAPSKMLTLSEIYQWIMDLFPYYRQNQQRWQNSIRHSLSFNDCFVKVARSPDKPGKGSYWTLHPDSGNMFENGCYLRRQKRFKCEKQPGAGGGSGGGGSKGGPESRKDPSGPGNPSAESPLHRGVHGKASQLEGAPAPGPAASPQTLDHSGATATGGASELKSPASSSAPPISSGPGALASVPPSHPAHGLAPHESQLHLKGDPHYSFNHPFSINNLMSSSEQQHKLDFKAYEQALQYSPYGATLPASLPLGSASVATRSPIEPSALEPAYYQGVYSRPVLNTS
Notes: whole designed probe, mean of two concentrations, ends assumed
All sequences stand within: GTGAGCGGTGCCCATTGATGGGGAAC … TTTCACTGGGATCGTGGGGAC
CGCATTAGCAGGGAAAGAAAAGGTACTGGCATGTACTGAACCCCATTCACCAGGCACTTTGTCAGGTCCTTCTTACAGGGGATTGCATCAGAGTAAACAAGGGACCAGAATCAAACTACTAACTCAACCTACTGATATTCAAAGTAAATATTGATTACGGATATAGAAAGTCATTATTCCATATAGTATATTA: 0.438 ratio
ATCTTCCCCCTCTTCCTTGCCCCACCAGCTCACCTTCCCGGGTTATTTGCAGATAGGAAAATAAATAAAGCCGGCATTCGTTAACCCTCTTCACGCGCATACTGCTGTTTGCTCTGCATCTAACATGGTCCTTACGCGAGGCGTGGCTCCGGGAGAGCAAAGCACCGTGTCAGGCGCATGATCCGGGGTGGCC: 0.352 ratio
ATCTTCCCCCTCTTCCTTGCCCCACCAGCTCACCTTCCCGGGTTATTTGCACAAAGGAAAATAAATAAAGCCGGCATTCGTTAACCCTCTTCACGCGCATACTGCTGTTTGCTCTGCATGAATCATGGTCCTTACGCGACGCCAGGCTCCGGGAGAGCAAAGCACCGTGTCAGGCGCATGATCCGGGCTCGCC: 0.376 ratio
GCACCACTCAGCCCCTCCTAGTCCGCTGGAGAAAGTGGCTGAGGGGGTGGTGGGGGATAATTGCATTTCCAAAGTCCGGGCAATCAGCCAATGTAATCTGGCACCTGCATCACTGTGTGGGCTCTCTAGGCAACAGGTAAAATACATCAAATACACACAATTTCCTGACATTCCAATGCATTTCTGCGTGAGC: 0.00277 ratio
CTGTTTATACTCCGAAGTTCTTTTCCCTTGATCTGTATAAGACACAATAGATGATAACAGCTGATTGAGAATAGTTAGTCTAGTGTATAAATATGTAATCTTGGGTAAGTATGTATTTAGACAATTTAAAAGTGTGTCTCATTTACCCAATTATAAACAGCTGTCTGAGAGCAATTACGATTTATCATGTAAA: 0.0864 ratio
TGATGATACGTTATAGCATTTCTCTGCTCTGTAAGAGAGGCACCAGGGTCGTGTGCTGGGTCTGGGGTTTGTCCATTCCACATCCGGTGCTGCTGTTGACTCTGGTGTCGGCCGCTGGTGAGCTGGCTGTAGCTGGTCACCTCTGGGTGGTTTCTGGGGCGGTCGCAGGCTGACTAACACACCAAAGGTCAGC: -0.00374 ratio
ATCTTCCCCCTCTTCCTTGCCCCACCAGCTCACCTTCCCGGGTCAAAGTAAACAAGTGTTTACTTTGAAGCCGGCATTCGTTAACCCTCTTCACGCGCATACTGCTGTTTGCTCTGGATCTAACATGGTCCTTTGGCGACGCCAGGCTCCGGGAGAGCAAAGCACCGTGTCAGGGCCATGATCCGGGGTGGCC: 0.454 ratio
AGCGCAGCCTAGAGGAGATAGGTGATGCCTGAAGCCATGAGAAGGGGTGTTATCTCTGCAGGAAGAAGAATTGCAACACTCCTCCCAGCTGAGCAAACAGTCTGGGCTGGGATGTGAGTGGTATCACACTCTGCACTCACTTCCTCCTTCAGTGGTCATTTGAGAGTTCACTGGGGCTGACCTACCCCATTGG: 0.191 ratio

Series 4 — technique: RNA Bind-n-Seq; molecule type: RNA; medium: in vitro; concentration: 365 nM; relative to: no-protein control; reading: higher = stronger binding; endpoint: RBNS enrichment (R)
Target: RNA binding protein fox-1 homolog 2, RRM domain, GST-SBP tag (RBFOX2, Homo sapiens, UniProt O43251-10, residues 100-194)
Notes: natural RNA segment, single round, ends assumed
All sequences stand within: GGGAGUUCUACAGUCCGACGAUC … UGGAAUUCUCGGGUGCCAA
Target sequence (chain): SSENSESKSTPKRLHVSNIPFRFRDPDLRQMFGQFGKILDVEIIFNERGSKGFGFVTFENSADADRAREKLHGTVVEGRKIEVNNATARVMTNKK
GACAUUUUGGACAUGAGUUCAAGGGGGCAGGUUAAUUCCUGGCAUUGCCAGUUUUCUUCAUUCAGAAUCUGUUUGUUGAUCAAGUGACUGUCCCCGUAAAAAGUAGAAGA: 0.419
CUCUGACCUCUGGUUCUAUUUUGGUAAGCUCCCAGCAGACACUUCCAAGUCUUGUACCAAGGGCAGUGCACACUAGGUCUAAGUUGGCAUAAACCUUCAUAUUCUGUCUG: 0.447
AGAACAGGAACAGAACUGAGCAGGGGCAGGUCUCCAAGGCAAGCCCAGCUGGUGUGACUUAGACAAUGACGAGGCUUCAACUCACUGUCUUUUUUUUUUUUUUUUGGAGG: 0.371
UUAUACAGAGAAACCCUGUCUUGAAAGAGCCAAAAAAAAAAAAAAAAAAUACAAGCCAGGAUUCUGCUCCCAAACCUUCAGGACAAUGGGUAGUCCCCAUGGGACCUUAA: 0.57
CUCGGGAAAAUGUGAAUGUGCCGCGUUUUGUUUUCAAUAUUGUAUGAAAACAGGAAAAAAAUAAAACAAAUUUAGAAAACACAGCUCAUUAAAAUAAAAUUGUUGGAUUU: 0.816
CUCCUUCCUGAUGGUCGCCCGUCCUCCCCUUUUGACGGAUGGUAUUCUUUCCUAACUCCCUCUGUUUUGUUUAAUUUUGGCUUUAGGUUUGCUGUCACUGGUCAUAUGGC: 0.51
CGCCAAGCUUAAUGCAAGAAUAUCUGACUGUUUAGAAGAAAGAUAUUGCCACAAUCUCUGGAUGGUUUUCCAGGGUUGUGUUAUUACUGAGCUUCAUCUUUCCAGAAUGA: 0.373
UUGGGGGUUGCUUGUGAAAUUAGGCUAAGUCAUUUGUAGACUAAUCAGUGAUUGUAAGUUUGCCUGAUACUCAGCACACAUCUAUGUUUUCCUAUGAGCAGUUCAACCUG: 0.471
ACUGUCUCCAGACAGCAGGGCCCUUUGUCUCUGAGAAAUUAGCCAUCCAGAAUAGAAUCUGUAACAAGAGACAUGGGACAUAAGCCAGAGAACUCAAACAGCCCUUUAAA: 0.328
GAACAUUGUGGGGAGGGACUCUAAAUAAACCAGUUUAGGCAUUUGCUAGCUUUAGGUGCUUUUAUUGGUGCCUGCCCUUUUCCUUGUUCAUUUUAAUUUCUGCAAUAAUC: 1.3
GGGCGCUCCUCUCUGCACACCUACUAGUCACCAGAGACUUUAGGGGGUGGGAUUCCACUCGUGUGUUUCUAUUUUUUGAAAAGCAGACAUUUUAAAAAAUGGUCACGUUU: 0.473
GGGCAGGGCCCAUCCUAAGCAGCUUCCAAGUCCCACAAAGGUGGCUUGUGGGAGGAUUUGGAAGGAGCUGCAUUGUGGGCGGGGAGUGUGUGGGUUGGGUUCGUACCAGC: 0.801

Repeated from above (series 1):
CCGGACCA: 0.092
CAGAATCC: -0.0399
GGGCACTA: 0.144
ACATAGCG: 0.0827
AATTGGTC: -0.121
ATGTAGCA: -0.19
CAGCAGGG: -0.0137
ATACCTAA: -0.216
GAATTGGC: -0.14
